Experimental data from different studies.
Compare with care: the assays were run in different laboratories. ± marks the error that the study gave.

Cc1ccc(NC(=O)c2ccc(CN3CCN(C)CC3)cc2)cc1Nc1nccc(-c2cncc(-c3oncc3C)c2)n1 — half-life (Parkinson's disease patients, plasma; oral, 50.0 mg once daily, day 7, 7-day dosing, mean): 1490 min
COc1cccc(CN)c1O — half-life (male C57BL/6 mouse, kidney; intraperitoneal, 200 mg/kg, single dose): 36 min
Cn1nnc2c(C(N)=O)ncn2c1=O — half-life (FVB mouse, plasma; intravenous, 50 mg/kg): 41.3 min
CCCc1ccc2c(c1)sc(=O)n2CCNC12CC3CC(CC(C3)C1)C2 — half-life (metabolic stability; rat, liver microsomes; 1 µM, pH 7.4): 2.46 min
CNCc1ccc(-c2[nH]c3cc(F)cc4c3c2CCNC4=O)cc1 — half-life (human, plasma; oral, 300 mg, fasted, median): 1450 min
Oc1ccc(-c2nc(-c3ccc(Oc4ccccc4)cc3)no2)cc1 — half-life (CD-1 mouse, plasma; intravenous, 50 mg/kg, single dose): 264 min
CCCc1ccc2c(c1)sc(=O)n2CCN(C)C12CC3CC(CC(C3)C1)C2 — half-life (metabolic stability; rat, liver microsomes; 1 µM, pH 7.4): 1.89 min
COc1cc(OC)c(/C=C/S(=O)(=O)Cc2ccc(OC)c(NCC(=O)O)c2)c(OC)c1 — half-life (cancer patients, phase I, plasma; oral, 70 mg twice daily, day 1 cycle 1): 200 ± 144 min
CCC(=O)c1ccc2c(c1)sc(=O)n2CCN(C)C12CC3CC(CC(C3)C1)C2 — half-life (metabolic stability; rat, liver microsomes; 1 µM, pH 7.4): 1.23 min
CONC(=O)c1cccc2c1cc(C)n2-c1nc2c(c(NCc3ccccc3)n1)CCCN2 — half-life (metabolic stability; rat, liver microsomes; 1 µM, pH 7.4): < 10 min

A few entries again:
CCC(=O)c1ccc2c(c1)sc(=O)n2CCN(C)C12CC3CC(CC(C3)C1)C2 — half-life (metabolic stability; rat, liver microsomes; 1 µM, pH 7.4): 1.23 min
